Measurements gathered from unrelated publications.
Lines come from different studies, so protocols differ. Numbers after ± are the reported error.
Organism: Salmonella typhimurium

Under “revertant colonies per plate”, `O=NN1CCN(C2CCCC2)CC1` is recorded as 12.7 ± 6 (mutagenicity, Ames plate incorporation; TA1535; 500 µg/plate, 3 d, without S9, methanol).
Under “fold increase in revertants”, `CC(=O)N1CCC(C(=O)N2CCN3C(=O)c4cc(-c5ccccc5)ccc4NC(=O)C3C2)CC1` (stereo not drawn) is recorded as 2.3 (TA1537; 1.58 µg/plate, with: rat liver S9; relative to: vehicle).
Under “revertant colonies per plate”, `CN(CC(C)(C)C)N=O` is recorded as 26 ± 11 (mutagenicity, Ames plate incorporation; TA98; 500 µg/plate, without S9, methanol).
`O=[N+]([O-])c1ccc(NC2CCNCC2)c(C(F)(F)F)c1` has an induction factor of 0.8 (genotoxicity, SOS/umu test; TA1535/pSK1002; 0.125 mg/mL, 4 h, without S9, full range).
`Cc1cc(C(=O)NC(C)(C)COc2cccc3c2C(N)=NS(=O)(=O)N3)cc(C)n1` gave a revertant ratio of 0.8 (Ames test, confirmatory; TA1535; 3333 µg/plate; relative to: solvent control).
`O=[N+]([O-])c1ccc(N2CCN(CCC(O)c3ccc(F)cc3)CC2)c(C(F)(F)F)c1` (stereo not drawn) has a survival of 110% (SOS/umu test; TA1535/pSK1002; 0.002 mg/mL, 4 h, without S9, full range).
For `COc1cccc(-c2n[nH]c(SCc3ccccn3)n2)c1OC`, “revertant colonies per plate” read 108 (Ames test, plate incorporation; TA100; 0.13 mg/plate, without S9).
`O=[N+]([O-])c1ccc(N2CCC(NCCC(O)c3ccc(F)c4ccccc34)CC2)c(C(F)(F)F)c1` (stereo not drawn) has a survival of 22.6% (SOS/umu test; TA1535/pSK1002; 0.008 mg/mL, 4 h, without S9, lower range).
`COCCN(CCOC)N=O` — result for “revertant colonies per plate”: 17 ± 6 (mutagenicity, Ames plate incorporation; TA1535; 50 µg/plate, 3 d, without S9, methanol).

Some of these lines once more:
`Cc1cc(C(=O)NC(C)(C)COc2cccc3c2C(N)=NS(=O)(=O)N3)cc(C)n1` gave a revertant ratio of 0.8 (Ames test, confirmatory; TA1535; 3333 µg/plate; relative to: solvent control).
